Experimental data gathered from unrelated publications.
Lines come from different studies, so protocols differ. ± gives the spread as reported.
Cell line: Vero

Compound | effect on | method | tested at | time | setting | measurement | value
CN[C@@H]1[C@H](O)[C@H](NC)[C@H]2O[C@]3(O)[C@H](O[C@@H]2[C@H]1O)O[C@H](C)C[C@@]3(O)CNCc1ccc(Cl)cc1 | – | – | – | – | – | IC50 | > 100 µg/mL
Clc1ccc2c(NCCCN3CCN(c4ccnc(N5CCCC5)n4)CC3)ccnc2c1 | cytotoxicity | neutral red uptake | – | 48 h | – | IC50 | > 4.76 µg/mL
CC(=O)Nc1ccn(C2OC(COC(C)=O)C3CC=CCC32)c(=O)n1 (mixture of isomers) | cytotoxicity | – | – | 3 days | – | IC50 | > 100 µM
COc1ccc(C(=O)CSc2nnc(COCCn3c([N+](=O)[O-])cnc3C)o2)cc1F | cell growth or viability | MTT | 6 µM | 48 h | – | viability | 107%
COc1ccc(Nc2c(C#N)cnc3ccc(Cl)cc23)cc1 | cell growth or viability | resazurin | – | 72 h | – | CC50 | > 100 µM
COc1cc(OC)c2c(c1)OCC(c1cc(OC)c(OC)cc1OC)C2=NO (stereo not drawn) | cytotoxicity | MTT | – | 72 h | 10% fetal bovine serum | IC50 | 159 ± 8.29 µM
CC(=O)O[C@@H]1[C@@H](OC(C)=O)[C@H](Sc2sc(C(=O)c3ccc(C)cc3)c(N)c2-c2nc3ccccc3s2)OC[C@H]1OC(C)=O | cytotoxicity | – | – | 72 h | – | maximum non-toxic concentration | 90 µg/mL
O=C(C=CC(Cc1ccccc1)Nc1ccnc2cc(Cl)ccc12)NCC(=O)N1CCNCC1 (stereo not drawn) | – | MTT | concentration not given | – | – | cytotoxicity | not toxic
Nc1ncnc2c1ncn2C1OC(CO)C2CC=CCC21 (mixture of isomers) | cytotoxicity | – | – | 3 days | – | IC50 | > 100 µM
CC(=O)OC[C@H]1O[C@@H](Sc2sc(C(=O)c3ccc(Br)cc3)c(N)c2-c2nc3ccccc3s2)[C@H](OC(C)=O)[C@@H](OC(C)=O)[C@@H]1OC(C)=O | cytotoxicity | – | – | 72 h | – | maximum non-toxic concentration | 100 µg/mL
CN[C@@H]1[C@H](O)[C@H](NC)[C@H]2O[C@]3(O)[C@H](O[C@@H]2[C@H]1O)O[C@H](C)C[C@@]3(O)CNCc1ccc(F)cc1 | – | – | – | – | – | IC50 | > 100 µg/mL
CCCCCCSc1ccc(SCCCCCC)c(O)c(=O)c1O | – | MTS | up to 100 µM | – | – | cytotoxicity | not toxic
CN[C@@H]1[C@H](O)[C@H](NC)[C@H]2O[C@]3(O)[C@H](O[C@@H]2[C@H]1O)O[C@H](C)C[C@@]3(O)CNCc1ccc(OC(F)(F)F)cc1 | cytotoxicity | CellTiter-Glo | – | 72 h | – | IC50 | > 100 µg/mL
Cc1ncc([N+](=O)[O-])n1CCOCc1nnc(SCC(=O)c2ccc(O)cc2)o1 | cell growth or viability | MTT | 6 µM | 48 h | – | viability | 106%
CCOC(=O)c1cc(-c2nc3ccccc3s2)c(=O)n(NS(=O)(=O)c2ccccc2)c1N | – | trypan blue | – | 72 h | – | maximum non-toxic concentration | 110 µg/mL
Cc1cc([N+](=O)[O-])ccc1NC(=O)CSc1nc2ccccc2c(=O)n1-c1ccc(S(N)(=O)=O)cc1 | cytotoxicity | MTT | – | – | 2% serum | IC50 | 927 µg/mL
Nc1ccn(C2OC(CO)C3CC=CCC32)c(=O)n1 (mixture of isomers) | cytotoxicity | – | – | 3 days | – | IC50 | > 100 µM
Cc1ccc(S(=O)(=O)Nn2c3c(cc(-c4nc5ccccc5s4)c2=O)CCCC3)cc1 | – | trypan blue | – | 72 h | – | maximum non-toxic concentration | 130 µg/mL
CC(=O)OCC1OC(n2cc(C)c(=O)[nH]c2=O)C2CC=CCC12 (mixture of isomers) | cytotoxicity | – | – | 3 days | – | IC50 | > 100 µM
CC(=O)OC[C@H]1O[C@@H](Sc2sc(C(=O)c3ccc(C)cc3)c(N)c2-c2nc3ccccc3s2)[C@H](OC(C)=O)[C@@H](OC(C)=O)[C@H]1OC(C)=O | cytotoxicity | – | – | 72 h | – | maximum non-toxic concentration | 100 µg/mL
Cc1ccc(S(=O)(=O)Nn2c3c(cc(-c4nc5ccccc5s4)c2=O)CCCCCC3)cc1 | – | trypan blue | – | 72 h | – | maximum non-toxic concentration | 130 µg/mL
CC(=O)O[C@@H]1[C@@H](OC(C)=O)[C@H](Sc2sc(C(=O)c3ccc(Cl)cc3)c(N)c2-c2nc3ccccc3s2)OC[C@H]1OC(C)=O | cytotoxicity | – | – | 72 h | – | maximum non-toxic concentration | 80 µg/mL
COc1cc(C2COc3cc(O)cc(O)c3C2=NN)c(OC)cc1O (stereo not drawn) | cytotoxicity | MTT | – | 72 h | 10% fetal bovine serum | IC50 | 134 ± 1.56 µM
CC(=O)O[C@@H]1[C@@H](OC(C)=O)[C@H](Sc2sc(C(=O)c3ccc(Br)cc3)c(N)c2-c2nc3ccccc3s2)OC[C@H]1OC(C)=O | cytotoxicity | – | – | 72 h | – | maximum non-toxic concentration | 100 µg/mL
Cc1ncc([N+](=O)[O-])n1CCOCc1nnc(SCC(=O)c2ccc([N+](=O)[O-])cc2)o1 | cell growth or viability | MTT | 6 µM | 48 h | – | viability | 104%
CC(=O)OC[C@H]1O[C@@H](Sc2sc(C(=O)c3ccc(Cl)cc3)c(N)c2-c2nc3ccccc3s2)[C@H](OC(C)=O)[C@@H](OC(C)=O)[C@@H]1OC(C)=O | cytotoxicity | – | – | 72 h | – | maximum non-toxic concentration | 80 µg/mL
Cc1ccc(O)c(C=NNC(=N)NO)n1 | – | cell morphology | up to 150 µM | – | – | cytotoxicity | not toxic

Excerpt of the above:
Compound | effect on | method | tested at | time | setting | measurement | value
Nc1ccn(C2OC(CO)C3CC=CCC32)c(=O)n1 (mixture of isomers) | cytotoxicity | – | – | 3 days | – | IC50 | > 100 µM
Cc1ccc(S(=O)(=O)Nn2c3c(cc(-c4nc5ccccc5s4)c2=O)CCCC3)cc1 | – | trypan blue | – | 72 h | – | maximum non-toxic concentration | 130 µg/mL
CC(=O)OCC1OC(n2cc(C)c(=O)[nH]c2=O)C2CC=CCC12 (mixture of isomers) | cytotoxicity | – | – | 3 days | – | IC50 | > 100 µM
CC(=O)OC[C@H]1O[C@@H](Sc2sc(C(=O)c3ccc(C)cc3)c(N)c2-c2nc3ccccc3s2)[C@H](OC(C)=O)[C@@H](OC(C)=O)[C@H]1OC(C)=O | cytotoxicity | – | – | 72 h | – | maximum non-toxic concentration | 100 µg/mL
